Measured values collected from several papers.
Numbered parts are unrelated; each lists some results of a single study. Substitutions count along the parent as printed.

Study 1
Target: RNA binding protein fox-1 homolog 2, RRM domain, GST-SBP tag (RBFOX2, Homo sapiens, UniProt O43251-10, residues 100-194)
Technique: RNA Bind-n-Seq
Molecule type: RNA
Sample: in vitro
Tested at: 365 nM
Setting: natural RNA segment, single round, ends assumed
Baseline: no-protein control
Reading: higher = stronger binding
Quantity: RBNS enrichment (R)
All sequences stand within: GGGAGUUCUACAGUCCGACGAUC … UGGAAUUCUCGGGUGCCAA
Target sequence (chain): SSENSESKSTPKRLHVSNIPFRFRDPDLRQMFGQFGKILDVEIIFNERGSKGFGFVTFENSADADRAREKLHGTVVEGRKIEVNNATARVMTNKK
Strand = UUUUAUGCAGACACGUGUCUGAAAAAUUAAAAUCCAUUGUCCAAACUUCCAUACAUUAGGUAACGUCUUAUAAUGUAAGGACAUGGUAUCCACUGCCCUAAAGAUUUAGA; result = 0.483
Strand = CACUGACCAUAUGAGGAGCUGCAGAAAUCUGUACAAACUCAACAGAGGCCACCUAGUCACUGGUCCACAUAACCCUUGACCCCUUCUUCUUCAUAGAGGAAACAAUGUGC; result = 0.219
Strand = UGAAACAUGUGCCCCUGCCAAGGCCGGAGACCCACAGCCCUGAAACGAGAAGUGCCCUUAAGGAUCACCCCAGCCCCCACAGCCCUGGAAUAAAUUUCGCAAUUAGUUUC; result = 0.362
Strand = GGUGUAGCCAGAAUAUUUUUUCCCUGCAAGCCCUAUGGGGUAGUAUCUAAUAAAUAUUCUGAGCAAGUGUGUGGGUUAUUUUUCAUCCAGGUCUAUUUCUAAUCUUCCCU; result = 0.549
Strand = UGCAGGGACAGAUGAUGUGCUGUCCUGUAUGAACCAUGCAUUCCAAUGGUACAACUGCCCAAAUCCACCUUUGGUUUCUGAUGACUUACAAGUGACUAUAGAAGAAAGAG; result = 0.821
Strand = CUACUCUUGUUUUCCCUCAUGAUAAUAAAUUUGUCAUAACUCAGUAACAUGAACUUGCCCCUAGAGGUAGUUGUUAAUAAUUUUGAAAUAUUAAGGUCUUGCCAAGCUUC; result = 0.585

Study 2
Target: Centromere-binding protein 1, full length, N-terminal tag (CBF1, Saccharomyces cerevisiae, UniProt P17106, residues 1-351)
Chain of UniProt P17106 (whole entry, looked up): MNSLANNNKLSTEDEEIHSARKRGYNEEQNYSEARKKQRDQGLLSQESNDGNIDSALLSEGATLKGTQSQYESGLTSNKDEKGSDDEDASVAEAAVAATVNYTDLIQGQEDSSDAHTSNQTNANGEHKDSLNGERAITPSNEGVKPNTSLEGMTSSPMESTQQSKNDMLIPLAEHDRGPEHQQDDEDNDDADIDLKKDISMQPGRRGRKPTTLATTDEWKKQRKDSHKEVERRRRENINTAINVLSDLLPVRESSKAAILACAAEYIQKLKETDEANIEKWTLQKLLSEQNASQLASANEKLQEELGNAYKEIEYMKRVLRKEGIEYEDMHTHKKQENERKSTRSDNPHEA
Technique: protein-binding microarray
Molecule type: double-stranded DNA, one strand shown
Sample: in vitro
Tested at: 0.8 µM
Setting: whole 60-bp probe, no competitor
Reading: higher = stronger binding
Quantity: fluorescence intensity
All sequences stand within: … GTCTTGATTCGCTTGACGCTGCTG
Strand = CCTAACTACTATAGGCACGACCCATAGCTTCGTACA; result = 522 a.u.
Strand = GAACATGAATATACTCACCTGTATACGTAGCAATAG; result = 586 a.u.
Strand = CTACGTTGCCCTAGTCACGCTGGTTACATAAATTTC; result = 823 a.u.
Strand = CTATAGTCATATTACCACGTGGAGCATCATGAATTC; result = 4790 a.u.
Strand = GAAATTATGTAGCATCACCCGGAAGAACTTTTGTAG; result = 501 a.u.
Strand = CTAGTCAGAAAAAGAAACGTGCACCCGCCCGTCTTC; result = 596 a.u.

Study 3
Target: CCNB1, cyclin fold, Cln2 fusion (human)
Technique: yeast growth competition, sequencing
Sample: yeast
Setting: weak parent motif
Baseline: not given
Reading: higher = stronger binding
Quantity: normalised enrichment score
Starting sequence: GMNC docking peptide (human); KNAKRNLSSEFAN
Substitution = KLAKRNLSSEFAN [N2L]; result = 0.258
Substitution = KNAHRNLSSEFAN [K4H]; result = -0.0447
Substitution = KNAKRNLSSIFAN [E10I]; result = -0.0957
Substitution = KNAKRNLWSEFAN [S8W]; result = 0.0959

Single results of other studies
Substance = PhoQ, residues 284 288 289 292 302 303 ASVMEA; target = PhoP, residues 12 14 15 18 19 DLLYY (Escherichia coli, UniProt P23836); test = Sort-seq, item: YFP reporter; system = E. coli; setting = PhoQ-PhoP variant library, with: 10 µM Mg2+; scale = baseline: high Mg2+ state, higher = stronger signaling; quantity = fold induction; result = 1.92

Excerpt of the above (study 2):
Strand = CTATAGTCATATTACCACGTGGAGCATCATGAATTC; result = 4790 a.u.
